Experimental data collected from several papers.
A part holds a random share of what one study measured.

Set 1
Target: Interferon regulatory factor 5, full length, phosphomimetic (IRF5, Homo sapiens, UniProt Q13568-2, residues 1-514, K96S/S451D/S453D/S456D/S462D)
Method: protein-binding microarray
Form: double-stranded DNA, one strand shown
Sample: in vitro
Tested at: 250 nM
Notes: 60-bp whole probe
With: salmon DNA 0.4 mg/ml
Reference: random background probes
Reading: higher = stronger binding
Endpoint: log fluorescence
All sequences stand within: GCCTAGCAC … GTCTTGATTCGCTTGACGCTGCTG
TTAGAACTGGGTATCGGTTAGTGCTAG: 4.82 z-score
CTATTTTTCACCTGCACTCAGTGCTAG: 1.47 z-score
GACGAACTGAGTTTCGAGCCGTGCTAG: 3.42 z-score
TTAGGTCTCTTTCTCCTTTAGTGCTAG: 1 z-score
GACGGTTTCGGTCTCGGGTCGTGCTAG: 9.52 z-score
TACGGTCTCCTACTGCTGACGTGCTAG: -0.245 z-score
TCATCTTTCACTGCTCCCACTGTGCTA: 2.92 z-score
GACGGACTAGGTATCGGGACGTGCTAG: 0.468 z-score
GTGACTCTGAACCTTCAGCTCGTGCTA: -0.332 z-score
GACCATTCCAGTTTCGAGACGTGCTAG: 5.41 z-score
TTAGTTTTCGGGACTGGATTAGTGCTA: 4.18 z-score

Set 2
Target: Protein C-ets-1 (ETS1, Homo sapiens, UniProt P14921, residues 1-441, full length assumed)
Sequence of UniProt P14921 (whole entry, looked up): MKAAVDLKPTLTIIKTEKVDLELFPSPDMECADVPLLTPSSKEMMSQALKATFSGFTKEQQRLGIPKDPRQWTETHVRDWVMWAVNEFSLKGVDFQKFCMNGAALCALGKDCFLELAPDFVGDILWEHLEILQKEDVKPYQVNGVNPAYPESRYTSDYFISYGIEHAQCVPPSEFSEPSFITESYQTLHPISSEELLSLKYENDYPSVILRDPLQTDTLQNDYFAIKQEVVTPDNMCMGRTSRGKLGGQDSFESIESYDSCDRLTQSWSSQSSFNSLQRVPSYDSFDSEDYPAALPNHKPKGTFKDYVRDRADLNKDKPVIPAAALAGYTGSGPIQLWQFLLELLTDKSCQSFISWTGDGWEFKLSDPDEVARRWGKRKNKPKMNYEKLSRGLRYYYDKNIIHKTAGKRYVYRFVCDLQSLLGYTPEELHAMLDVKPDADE
Method: protein-binding microarray
Form: double-stranded DNA, one strand shown
Sample: in vitro
Tested at: not given
Notes: k-mer, scored over probes, only values ≥0.25
Reading: higher = stronger binding
Endpoint: E-score
GAATTTCC: 0.424
CATCCGCG: 0.381
CCGGTGAA: 0.271
GCACGGAA: 0.387
CAGGAAGA: 0.407
CCGGTGCG: 0.315
CCTACTTC: 0.275

Set 3
Target: Histone acetyltransferase KAT6A, winged helix 2, GST fusion (KAT6A, Homo sapiens, UniProt Q92794, residues 85-181)
Method: protein binding microarray
Form: double-stranded DNA, one strand shown
Sample: in vitro
Tested at: not given
Notes: 8-mer, flanks averaged, mean of 2 arrays, mostly near background
Reference: not given
Reading: higher = stronger binding
Endpoint: E-score
Construct (chain): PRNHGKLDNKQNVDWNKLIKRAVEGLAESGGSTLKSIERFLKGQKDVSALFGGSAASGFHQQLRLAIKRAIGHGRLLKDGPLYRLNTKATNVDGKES
TAGCGGCA: 0.0965
GACTTTAC: -0.053
CATACACA: -0.141
GGTATACC: 0.0412
CCGTGGCC: 0.109
AGCCAATA: -0.0978
ATCTCTCG: 0.009
CTAGCCGA: 0.0934
CGTCCAAA: 0.0187
AGGCTAAC: -0.0712
GTGAGTCA: -0.0766
GATGGTTA: -0.0803
ATCCGCTC: 0.0888
ACTCCTGC: 0.00509
CCGCATAC: 0.0779
ACCCCCTA: -0.297
CATAGCGG: 0.0126
ACCGGCCT: 0.118
AGACTTAT: -0.187
ATCACACA: 0.106
GGGCCTAA: -0.0181
TCGGTACA: -0.142
TGGGAAAA: -0.0817
ACGTTACA: 0.046
CCCTAGGA: 0.013

Set 4
Target: Sal-like protein 4, full length isoform A (SALL4, Homo sapiens, UniProt Q9UJQ4, residues 1-1053)
Sequence of UniProt Q9UJQ4 (whole entry, looked up): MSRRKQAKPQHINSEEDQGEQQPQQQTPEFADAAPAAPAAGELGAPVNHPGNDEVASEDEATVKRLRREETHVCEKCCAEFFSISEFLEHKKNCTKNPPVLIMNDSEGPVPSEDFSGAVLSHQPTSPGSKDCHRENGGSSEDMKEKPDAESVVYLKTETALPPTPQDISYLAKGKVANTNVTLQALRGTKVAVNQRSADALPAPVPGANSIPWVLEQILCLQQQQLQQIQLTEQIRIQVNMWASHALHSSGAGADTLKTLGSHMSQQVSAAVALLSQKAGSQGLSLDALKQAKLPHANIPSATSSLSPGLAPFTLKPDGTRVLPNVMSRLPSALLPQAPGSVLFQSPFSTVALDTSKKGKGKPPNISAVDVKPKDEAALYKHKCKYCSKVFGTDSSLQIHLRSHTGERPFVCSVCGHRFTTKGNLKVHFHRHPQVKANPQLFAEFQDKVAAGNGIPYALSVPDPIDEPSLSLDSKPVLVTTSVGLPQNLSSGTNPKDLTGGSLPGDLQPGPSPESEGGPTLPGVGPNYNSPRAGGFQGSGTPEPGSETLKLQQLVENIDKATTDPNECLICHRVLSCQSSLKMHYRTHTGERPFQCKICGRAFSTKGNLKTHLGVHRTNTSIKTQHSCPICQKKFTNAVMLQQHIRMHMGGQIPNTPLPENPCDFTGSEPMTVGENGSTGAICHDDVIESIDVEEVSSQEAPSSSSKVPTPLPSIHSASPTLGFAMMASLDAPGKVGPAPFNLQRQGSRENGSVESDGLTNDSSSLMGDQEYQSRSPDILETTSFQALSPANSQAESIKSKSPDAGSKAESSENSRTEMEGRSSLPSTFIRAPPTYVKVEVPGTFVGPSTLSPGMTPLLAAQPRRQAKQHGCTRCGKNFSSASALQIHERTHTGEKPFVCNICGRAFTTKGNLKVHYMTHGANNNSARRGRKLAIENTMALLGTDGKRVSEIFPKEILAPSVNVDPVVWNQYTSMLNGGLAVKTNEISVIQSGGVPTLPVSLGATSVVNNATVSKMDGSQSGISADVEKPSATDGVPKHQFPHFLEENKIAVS
Method: universal PBM
Form: double-stranded DNA, one strand shown
Sample: in vitro
Tested at: 600 nM
Notes: 8-mer, flanks averaged, mean of replicates
Reading: higher = stronger binding
Endpoint: E-score
CCTCCCTA: -0.133
CGGGGGTC: -0.427
AAAAGCCA: 0.0908
GCCTTCAC: -0.074
ACACTGTG: -0.097
ACCATCCG: -0.176
ACTAGAGT: 0.0378
AGATGCGG: -0.108
CTCCATTC: -0.0981
CGCGTACG: 0.0615
ACCCACTG: -0.249

Single results of other studies
PhoQ, residues 284 288 289 292 302 303 ASTSDA — fold induction (PhoP, residues 12 14 15 18 19 IQFRS (Escherichia coli, UniProt P23836); Sort-seq, refers to: YFP reporter; E. coli; PhoQ-PhoP variant library, with: 10 µM Mg2+; reference: high Mg2+ state, higher = stronger signaling): 19.8

Excerpt of the above (set 1):
TTAGGTCTCTTTCTCCTTTAGTGCTAG: 1 z-score
GACGGTTTCGGTCTCGGGTCGTGCTAG: 9.52 z-score
TACGGTCTCCTACTGCTGACGTGCTAG: -0.245 z-score
TCATCTTTCACTGCTCCCACTGTGCTA: 2.92 z-score
GACGGACTAGGTATCGGGACGTGCTAG: 0.468 z-score
